Measurements of several laboratories.
Each numbered part is a random draw from the data of one study; scales do not carry over between parts.

Sample 1
Target: Serine/threonine-protein kinase haspin (HASPIN, Homo sapiens, UniProt Q8TF76)
Observed: enzyme activity
Action: inhibitor
Tested at: 0.5 µM
Relative to: control
Residues (Q8TF76 1-798): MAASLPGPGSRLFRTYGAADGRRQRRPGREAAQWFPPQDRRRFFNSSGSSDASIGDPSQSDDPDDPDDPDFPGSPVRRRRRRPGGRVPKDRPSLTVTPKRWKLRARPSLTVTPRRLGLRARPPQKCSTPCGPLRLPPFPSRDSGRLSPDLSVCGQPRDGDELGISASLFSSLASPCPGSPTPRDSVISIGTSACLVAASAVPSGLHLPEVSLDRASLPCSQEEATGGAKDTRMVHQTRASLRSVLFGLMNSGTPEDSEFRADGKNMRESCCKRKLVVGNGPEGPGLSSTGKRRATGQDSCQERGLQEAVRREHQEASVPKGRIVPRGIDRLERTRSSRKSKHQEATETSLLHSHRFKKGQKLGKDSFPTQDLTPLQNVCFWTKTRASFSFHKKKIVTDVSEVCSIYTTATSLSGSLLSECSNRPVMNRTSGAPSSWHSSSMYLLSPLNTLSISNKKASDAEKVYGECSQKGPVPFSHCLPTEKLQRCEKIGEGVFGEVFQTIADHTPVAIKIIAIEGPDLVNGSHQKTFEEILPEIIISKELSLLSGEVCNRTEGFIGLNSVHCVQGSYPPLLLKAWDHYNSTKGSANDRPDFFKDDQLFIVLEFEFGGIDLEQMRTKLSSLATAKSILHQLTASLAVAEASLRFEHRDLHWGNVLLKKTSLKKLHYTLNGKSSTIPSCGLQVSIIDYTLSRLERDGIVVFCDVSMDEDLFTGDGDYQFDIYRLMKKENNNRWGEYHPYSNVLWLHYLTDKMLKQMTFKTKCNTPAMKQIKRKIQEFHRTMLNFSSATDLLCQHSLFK
`O=C1NC(=O)c2c1c1c3ccccc3[nH]c1c1[nH]c3cc(Br)ccc3c21` has a remaining activity of 72.9%.
With `CCCCc1c(-c2ccc(OC)cc2)[nH]c2nccnc12` the remaining activity was 80%.
The remaining activity of `O=c1cc(N2CCOCC2)oc2c(-c3ccccc3)cccc12` is reported as 93.4%.
`COc1cccc(-c2cc(=O)c3ccccc3o2)c1N` has a remaining activity of 95.7%.
The remaining activity of `O=C1NC(=O)c2c1c1c3ccccc3[nH]c1n1cncc21` is reported as 33.5%.
`CN(C)S(=O)(=O)c1ccc2c(c1)/C(=C/c1cc3c([nH]1)CCCC3)C(=O)N2` gave a remaining activity of 116%.
`COc1ccc(COc2ccc(Cc3cnc(N)nc3N)cc2OC)cc1` gave a remaining activity of 97.7%.
With `O=C1Nc2ccccc2/C1=C\c1c(Cl)[nH]c2ccccc12` the remaining activity was 91%.
For `c1ccc(-c2n[nH]c3c2oc2ccccc23)cc1`, the remaining activity was 99.3%.
The remaining activity of `O=Nc1c(-c2c(O)[nH]c3cc(Br)ccc23)[nH]c2ccccc12` is reported as 95.9%.

Sample 2
SMILES: COc1ccc(-c2c(Nc3ccccn3)[nH]c3c(C4=CCCCC4)c(-c4ccccc4)nn3c2=O)cc1
Technique: LC-MS/MS
Host: human patients
Medium: plasma
The “plasma methionine concentration” was 87000 ng/mL (50 mg QD, 8 h, median).
For 200 mg BID, 1 h, mean: “plasma methionine concentration” read 67900 ng/mL.
The “plasma methionine concentration” was 96300 ng/mL (200 mg BID, 6 h, median).
dose not given, 1 h, geometric mean, QD dosing — “plasma methionine concentration”: 64400 ng/mL.

Sample 3
Target: 5-hydroxytryptamine receptor 6 (HTR6, Homo sapiens, UniProt P50406)
Sequence of UniProt P50406 (whole entry, looked up): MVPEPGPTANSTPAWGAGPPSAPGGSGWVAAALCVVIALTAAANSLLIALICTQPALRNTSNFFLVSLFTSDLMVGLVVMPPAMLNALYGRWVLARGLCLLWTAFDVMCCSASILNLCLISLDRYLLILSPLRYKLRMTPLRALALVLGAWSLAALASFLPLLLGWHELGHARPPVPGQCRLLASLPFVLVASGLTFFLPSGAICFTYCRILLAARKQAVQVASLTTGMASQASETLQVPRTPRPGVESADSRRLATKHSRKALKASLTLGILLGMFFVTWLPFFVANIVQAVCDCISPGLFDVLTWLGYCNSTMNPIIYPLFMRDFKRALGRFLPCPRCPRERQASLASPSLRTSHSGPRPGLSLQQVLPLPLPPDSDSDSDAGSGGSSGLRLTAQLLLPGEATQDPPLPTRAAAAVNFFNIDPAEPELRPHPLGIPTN
Observed: ligand displacement
Tested at: 10 µM
For `CS(=O)(=O)N1CCCC(NC(=O)[C@H](CCC2CCCCC2)NC(=O)c2ccc(CNC(=O)c3cnc4ccccn34)cc2)C1` (stereo partly drawn), the inhibition was 18.2%.
`NC(=O)c1ccc2nc(-c3ccc(C4(N)CCC4)cc3)c(-c3ccccc3)n2n1` has an inhibition of 17.8%.
With `C[C@@H](c1cccc(C#N)c1)n1cc(Cl)cc(C(N)=O)c1=N` the inhibition was 7.75%.
`C[C@@H]1CN(c2cc(-c3n[nH]c4ccc(OC5(C)CC5)cc34)ncn2)C[C@H](C)O1` gave an inhibition of -13.6%.
For `CN1CCN(c2ccnc(NCCc3ccccc3)n2)CC1`, the inhibition was 80.4%.
With `CN1CCN(C(=O)C(C)(C)c2ccc(C(=O)Nc3cn4cc(-c5cc(C(C)(C)C)cc(C(C)(C)C)c5)ccc4n3)cc2)CC1` the inhibition was 30.8%.
For `CCOc1ccc(S(=O)(=O)Nc2ccc(Cl)cc2C#Cc2cnc(C(=O)O)cc2OC)c2ncccc12`, the inhibition was 25.9%.
The inhibition of `Cn1nc(C(=O)NCc2ccc(C(=O)O)cc2)cc1-c1ccc2[nH]ccc2c1` is reported as 8.85%.
With `O=C(N[C@H]1CCCCC/C=C\C2C[C@@]2(C(=O)O)NC(=O)[C@@H]2C[C@@H](Oc3ccncc3)CN2C1=O)OC1CCCC1` (stereo partly drawn) the inhibition was -7.71%.
`Cc1ccccc1Oc1cc(-n2c(=O)cc(C(F)(F)F)[nH]c2=O)c2ccccc2c1Cl` gave an inhibition of 13%.
`CC(=O)Nc1ncc(CN2CCC[C@H](Cc3cc(C)nc(C)c3)C2)s1` gave an inhibition of 14.3%.
For `COc1cc(C(=O)O)ncc1C#Cc1ccccc1NS(=O)(=O)c1cccc2c(N(C)C)ccnc12`, the inhibition was 65.5%.
`C[C@H](c1ccc(F)cc1)N(Cc1cccc(C(=O)O)c1)C(=O)c1cnc2ccccc2c1` has an inhibition of 3.57%.
The inhibition of `CC(=O)N1CCC(c2ccc(C(=O)NC3=NCCN3)cc2C(F)(F)F)CC1` is reported as 0.267%.
`Nc1cnc(N2CCc3cc(S(=O)(=O)Nc4c(F)cc(Cl)cc4F)cc(N4CCCC4=O)c32)nc1` has an inhibition of -26.7%.

Sample 4
Host: human
Medium: microsomes or S9
Tested at: 2 µM
Time: 0.5 h
The remaining compound of `COC(=O)c1c(CC(=O)N2CCCC2C2CCCCC2)[nH]c(C(C)=O)c1C` (stereo not drawn) is reported as 0.263%.
For `O=C1CCCC2=C1C(c1ccco1)Nc1ccc3ccccc3c12` (stereo not drawn), the remaining compound was 38.6%.
With `COc1ccc(OC)c(C(c2c(O)cc(C)n(C)c2=O)c2c(O)cc(C)n(C)c2=O)c1` the remaining compound was 89.7%.
With `CCCN(CCC)C(=O)c1cccc(C(=O)NN(Cc2ccc(Br)cc2)C(=O)CN[C@H](C(=O)NCc2cccc(OC)c2)C(C)C)c1` the remaining compound was 7.91%.
With `O=C(COc1ncccn1)NCCNc1cc(-n2cccn2)ncn1` the remaining compound was 94.6%.
`CCOCc1cc(-c2ccccc2)[nH]c(=O)c1C#N` gave a remaining compound of over 99%.
For `COc1ccc([C@@H](C)NC(=O)COc2c(C)ccc(C)c2C)cc1`, the remaining compound was 0.881%.
`Cc1nc(C2CC2)nc2sc(C(=O)NC3(C#N)CCCC3)c(N)c12` has a remaining compound of 33.7%.
`COCCN(C(C)=O)c1nc(C)c(C(=O)Nc2nnc(C(C)C)s2)s1` has a remaining compound of 91%.
With `CCCn1c(=O)c2c(nc3n2C(C)C(C)=NN3CCCO)n(C)c1=O` (stereo not drawn) the remaining compound was 9.67%.
`N#Cc1ccc2nc(N3CCc4c(ncn4-c4ccccc4)C3)ccc2c1` has a remaining compound of over 100%.
The remaining compound of `Cn1ncc2cc(NC(=O)N3C[C@H]4CC=CC[C@H]4C3)ccc21` is reported as 95.6%.
`OC1(c2ccc(Br)cc2)CCNCC1` gave a remaining compound of 23.2%.

For quick reference, copied from above (sample 3):
For `CCOc1ccc(S(=O)(=O)Nc2ccc(Cl)cc2C#Cc2cnc(C(=O)O)cc2OC)c2ncccc12`, the inhibition was 25.9%.
The inhibition of `Cn1nc(C(=O)NCc2ccc(C(=O)O)cc2)cc1-c1ccc2[nH]ccc2c1` is reported as 8.85%.
For `CS(=O)(=O)N1CCCC(NC(=O)[C@H](CCC2CCCCC2)NC(=O)c2ccc(CNC(=O)c3cnc4ccccn34)cc2)C1` (stereo partly drawn), the inhibition was 18.2%.
